Published values pooled from the literature.
Lines come from different studies, so protocols differ. Values joined by “and” are separate records of one study, mostly repeats; a detail may differ. Numbers after ± are the reported error.
TDP1: Tyrosyl-DNA phosphodiesterase 1 (TDP1, Homo sapiens, UniProt Q9NUW8)
Sequence of UniProt Q9NUW8 (whole entry, looked up): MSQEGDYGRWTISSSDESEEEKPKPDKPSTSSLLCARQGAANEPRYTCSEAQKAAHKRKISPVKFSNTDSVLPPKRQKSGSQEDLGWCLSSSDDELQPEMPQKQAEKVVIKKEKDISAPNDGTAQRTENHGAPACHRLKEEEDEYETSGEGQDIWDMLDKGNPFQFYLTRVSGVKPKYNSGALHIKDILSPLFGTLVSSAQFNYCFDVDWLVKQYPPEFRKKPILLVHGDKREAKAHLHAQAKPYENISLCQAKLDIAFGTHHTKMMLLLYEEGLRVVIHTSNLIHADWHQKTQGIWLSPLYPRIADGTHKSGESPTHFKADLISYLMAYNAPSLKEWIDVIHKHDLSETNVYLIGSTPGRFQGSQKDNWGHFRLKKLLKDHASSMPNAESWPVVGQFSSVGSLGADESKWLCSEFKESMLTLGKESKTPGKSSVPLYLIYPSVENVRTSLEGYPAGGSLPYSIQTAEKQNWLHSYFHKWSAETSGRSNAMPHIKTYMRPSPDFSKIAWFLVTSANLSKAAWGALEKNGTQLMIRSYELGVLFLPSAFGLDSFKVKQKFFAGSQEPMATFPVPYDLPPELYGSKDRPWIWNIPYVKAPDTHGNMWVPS

SMILES	tested on	assay	test system	setting	how to read	measurement	result
COc1ccc(C(=O)CCc2cc(C(CCc3ccc(O)cc3OC)c3ccc(O)cc3)c(O)cc2OC)cc1 (racemic)	–	–	human blood	1 µM, added: A23187	–	15-HETE level	253 ± 69 pg/mL
COCCOCCOCCNC(=O)Cc1cc(CC(=O)N[C@H]2C[C@H]3C(=O)Nc4cc(OCCOCCOCCOC)cc(n4)C(=O)N4CCC[C@H]4C(=O)Nc4cc(OCCOCCOCCOC)cc(n4)C(=O)N4CCC[C@H]4C(=O)Nc4cc(OCCOCCOCCOC)cc(n4)C(=O)N3C2)cc(CC(=O)N[C@H]2C[C@H]3C(=O)Nc4cc(OCCOCCOCCOC)cc(n4)C(=O)N4CCC[C@H]4C(=O)Nc4cc(OCCOCCOCCOC)cc(n4)C(=O)N4CCC[C@H]4C(=O)Nc4cc(OCCOCCOCCOC)cc(n4)C(=O)N3C2)c1	–	anion binding, ITC	water/methanol 70 vol% (84.0 mol%)	298 K, added: sodium sulfate	–	TΔS	4.493 ± 0.0239 kcal/mol
CN1CCC[C@]1(C)/C=C/S(=O)(=O)NC(=O)Nc1c2c(cc3c1CCC3)CCC2	–	–	human, whole blood ex vivo	100 mg twice daily, day 19, 108 h, multiple ascending dose, added: LPS and ATP	–	IL-18 inhibition	16.7%
COc1cnc2cccc(N3CCc4c(cc(Cn5ccnc5)cc4-c4cn(C)nc4C(F)(F)F)C3=O)c2c1	–	–	BALB/c nude mice, MV4-11 xenograft	intraperitoneal, 75 mg/kg, day 10	–	tumour volume	151 mm3 and 172 mm3 and 161 mm3 and 164 mm3 and 144 mm3 and 105 mm3
CC(C)=CCC[C@]1(C)[C@@H](CC=C(C)C)C[C@@]2(CC=C(C)C)C(=O)[C@]1(C(=O)C(C)C)C(=O)C(CC=C(C)C)=C2O	–	infrared imaging	C57BL/6J mice, diet-induced obese	oral, 20 mg/kg, added: cold exposure 4 °C for 5 h	relative to: vehicle	body surface temperature	increased
COc1ccc(NC(=O)c2ccc3[nH]c(-c4ccc(N(C)C)cc4)nc3c2)cn1	–	–	CT26, BALB/c nude mice, subcutaneous graft	dose not given, day 9	–	tumour volume	1260 mm3 and 988 mm3 and 1640 mm3 and 1960 mm3
COCC1CN(C2CCN(c3cc(OC)c(Nc4ncc(Br)c(Nc5ccc6c(c5P(C)(C)=O)OCCO6)n4)cc3C)CC2)C1	–	RECIST 1.1	advanced EGFR-mutant NSCLC patients	240 mg once daily	–	objective response rate	0%
COc1cc(O)ccc1CCC(c1ccc(O)cc1)c1cc2c(c(C)c1O)OC(c1ccc(O)cc1)CC2 (mixture of isomers)	–	–	human blood	30 µM, added: A23187	–	15-HETE level	563 ± 335 pg/mL
CC[C@H](C)[C@@H](C(=O)N[C@@H](CC(C)C)C(=O)N[C@@H](CO)C(=O)N[C@@H](CO)C(=O)N[C@H](C(=O)N[C@@H](CCC(=O)O)C(=O)N[C@H](C(=O)NCC(=O)N[C@@H](CO)C(=O)N[C@@H](CC(N)=O)C(=O)N[C@H](C(=O)N1C[C@H](O)C[C@H]1C(N)=O)[C@@H](C)O)C(C)C)[C@@H](C)O)N(C)C(=O)[C@H](C)NC(=O)CN(C)C(=O)[C@H](Cc1ccccc1)NC(=O)[C@H](CO)NC(=O)[C@H](CO)NC(=O)[C@H](CCCNC(=N)N)NC(=O)[C@H](CCC(N)=O)NC(=O)[C@H](CC(C)C)NC(=O)[C@H](Cc1ccccc1)NC(=O)[C@H](CCCC(=O)O)NC(=O)[C@H](C)NC(=O)[C@H](CC(C)C)NC(=O)[C@H](CCCNC(=N)N)NC(=O)[C@H](CCC(=O)O)NC(=O)[C@@H](NC(=O)[C@H](C)NC(=O)[C@@H]1CCCCNC(=O)C[C@H](NC(=O)[C@H](CCCNC(=N)N)NC(=O)CC[C@H](NC(=O)CCCCCCCCCCCCCCCCCCC(=O)O)C(=O)O)C(=O)NCC(=O)N[C@@H]([C@@H](C)O)C(=O)N[C@@H](C)C(=O)N[C@@H]([C@@H](C)O)C(=O)N1)[C@@H](C)O	–	–	male Sprague-Dawley rats	subcutaneous, 30 nmol/kg single dose, 24 h	relative to: vehicle	food intake	70.8 ± 1.6%
COc1cc(C2CC(Nc3ccc(-c4ccc(NC5=NOC(c6ccc(O)c(OC)c6)C5)cc4)cc3)=NO2)ccc1O (centres unmarked)	–	carrageenan paw oedema	albino rat	oral, 50 mg/kg, 3 h	–	inhibition	35.5%
CCCC[N+]1=c2cc3c4cc2[O][Mn-2]1(=[C]=O)(=[C]=O)(=[C]=O)[n+]1ccc(cc1)C(=O)Oc1ccccc1OC(=O)c1cc[n+](cc1)[Mn-2](=[C]=O)(=[C]=O)(=[C]=O)([O]3)[N+]=4CCCC	–	myoglobin	equine heart myoglobin	added: green LED light	–	apparent CO release rate constant	0.000753 s⁻¹
COc1cc(N2CCCC2)ccc1C=NOCc1ccc2nc(-c3ccccc3)c(Nc3ccc(C(=O)O)cc3)n2c1	TDP1	enzyme activity, inhibitor	–	100 µM, unpurified compound	–	inhibition	35.6%
CC(C)=CCc1cc(C(=O)/C=C/c2ccc(O)cc2)c(O)cc1O	–	phase I metabolism, substrate	minipig liver microsomes	–	–	Vmax	118 ± 17.1 pmol/min/mg
CC(C)(C)NCC(SS(=O)(=O)O)c1ccccc1 (centres unmarked)	–	–	mouse infected with Schistosoma mansoni	400 mg/kg, day 42 post-infection dosing once, perfusion day 52 post-infection	–	spleen weight	0.53 g and 0.85 g and 0.67 g
Cc1cnc2nc1Nc1cccc(c1)COC/C=C/COCc1cc(ccc1OCCN1CCOCC1)N2	–	–	BALB/c mice rhEPO-induced polycythemia	100 mg/kg	–	reticulocytes	11.2% and 11.4% and 11.9% and 10.4% and 9.57%
CCOC(=O)C12CC(N)(C1)C2	–	–	CD-1 mouse female	subcutaneous, 6.5 mg/mouse, 0 min	higher = stronger analgesia	tail flick latency	2.5 a.u. and 3.07 a.u. and 2.39 a.u. and 2.6 a.u. and 2.62 a.u.
COC1CN([C@H]2CC[C@H]([C@@]3(C)Oc4c(Cl)cc(C(=O)NCc5c(SC)cc(C)[nH]c5=O)c(C)c4O3)CC2)C1	–	RNA-seq, measured: SORBS1 mouse homolog	mouse, HT-1376 xenograft, whole blood	dose not given	relative to: vehicle	log2 fold change	0.459
Cc1ccc(C=c2[nH]c3n(c2=O)CCCCC=3C=NOCc2ccc3nc(-c4ccccc4)c(Nc4ccc(C(=O)O)cc4)n3c2)cc1	TDP1	enzyme activity, inhibitor	–	100 µM, unpurified compound	–	inhibition	16.4%
CC(=O)[O-].O.O.O.O.[Ni+2].[O-]c1ccc(Br)cc1C=NCCN1CCOCC1	–	hydroxyl radical scavenging	–	80 µM	–	inhibition	15.8%
COc1ccc(C2CC(Nc3ccc(-c4ccc(NC5=NOC(c6ccc(OC)cc6)C5)cc4)cc3)=NO2)cc1 (centres unmarked)	–	carrageenan paw oedema	albino rat	oral, 100 mg/kg, 3 h	–	inhibition	67.3%

For quick reference, copied from above:
SMILES	tested on	assay	test system	setting	how to read	measurement	result
CC(C)(C)NCC(SS(=O)(=O)O)c1ccccc1 (centres unmarked)	–	–	mouse infected with Schistosoma mansoni	400 mg/kg, day 42 post-infection dosing once, perfusion day 52 post-infection	–	spleen weight	0.53 g and 0.85 g and 0.67 g
